Published values collected from several papers.
Each numbered part is a random draw from the data of one study; scales do not carry over between parts.
Chain of UniProt P51957 (whole entry, looked up): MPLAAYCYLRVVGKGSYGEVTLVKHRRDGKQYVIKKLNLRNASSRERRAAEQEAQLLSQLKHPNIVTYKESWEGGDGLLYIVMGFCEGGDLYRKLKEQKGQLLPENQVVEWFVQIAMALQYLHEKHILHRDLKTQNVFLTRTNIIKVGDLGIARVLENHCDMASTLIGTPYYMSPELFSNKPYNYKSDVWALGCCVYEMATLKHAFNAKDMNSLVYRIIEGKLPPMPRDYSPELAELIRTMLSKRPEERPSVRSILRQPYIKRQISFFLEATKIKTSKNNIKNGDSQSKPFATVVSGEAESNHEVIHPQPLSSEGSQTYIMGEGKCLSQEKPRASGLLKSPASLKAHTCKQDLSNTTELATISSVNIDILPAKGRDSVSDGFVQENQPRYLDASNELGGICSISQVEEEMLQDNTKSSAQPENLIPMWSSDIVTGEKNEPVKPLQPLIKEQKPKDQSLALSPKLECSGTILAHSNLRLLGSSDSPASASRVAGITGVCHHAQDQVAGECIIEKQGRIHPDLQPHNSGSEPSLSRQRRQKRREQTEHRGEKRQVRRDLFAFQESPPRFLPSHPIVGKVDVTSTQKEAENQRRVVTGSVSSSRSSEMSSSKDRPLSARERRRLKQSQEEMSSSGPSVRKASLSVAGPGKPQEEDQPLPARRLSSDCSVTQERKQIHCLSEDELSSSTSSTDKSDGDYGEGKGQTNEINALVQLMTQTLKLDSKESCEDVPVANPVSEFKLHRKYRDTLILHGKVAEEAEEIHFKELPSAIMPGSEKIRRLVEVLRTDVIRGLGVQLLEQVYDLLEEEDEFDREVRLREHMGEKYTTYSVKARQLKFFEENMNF
Chain of UniProt P46734 (whole entry, looked up): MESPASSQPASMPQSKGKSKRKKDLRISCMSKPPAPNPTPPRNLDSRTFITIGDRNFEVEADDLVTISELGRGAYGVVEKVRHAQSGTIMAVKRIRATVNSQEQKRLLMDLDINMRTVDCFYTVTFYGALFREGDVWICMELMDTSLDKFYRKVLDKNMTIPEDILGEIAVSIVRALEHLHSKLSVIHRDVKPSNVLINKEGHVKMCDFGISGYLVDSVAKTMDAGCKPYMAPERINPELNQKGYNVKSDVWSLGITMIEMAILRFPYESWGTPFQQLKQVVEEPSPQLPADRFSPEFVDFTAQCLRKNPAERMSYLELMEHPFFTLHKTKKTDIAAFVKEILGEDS
Chain of UniProt Q9HBY8 (whole entry, looked up): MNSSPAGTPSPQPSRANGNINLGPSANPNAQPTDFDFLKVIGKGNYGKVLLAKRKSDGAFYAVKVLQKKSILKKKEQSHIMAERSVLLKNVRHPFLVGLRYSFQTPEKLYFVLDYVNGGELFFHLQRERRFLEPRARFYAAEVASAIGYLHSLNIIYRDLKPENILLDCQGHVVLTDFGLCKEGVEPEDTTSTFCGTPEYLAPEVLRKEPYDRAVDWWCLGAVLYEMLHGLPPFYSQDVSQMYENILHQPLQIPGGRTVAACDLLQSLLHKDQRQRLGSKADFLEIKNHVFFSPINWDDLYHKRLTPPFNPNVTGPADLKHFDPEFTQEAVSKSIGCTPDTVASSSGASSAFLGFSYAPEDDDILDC
Chain of UniProt Q04759 (whole entry, looked up): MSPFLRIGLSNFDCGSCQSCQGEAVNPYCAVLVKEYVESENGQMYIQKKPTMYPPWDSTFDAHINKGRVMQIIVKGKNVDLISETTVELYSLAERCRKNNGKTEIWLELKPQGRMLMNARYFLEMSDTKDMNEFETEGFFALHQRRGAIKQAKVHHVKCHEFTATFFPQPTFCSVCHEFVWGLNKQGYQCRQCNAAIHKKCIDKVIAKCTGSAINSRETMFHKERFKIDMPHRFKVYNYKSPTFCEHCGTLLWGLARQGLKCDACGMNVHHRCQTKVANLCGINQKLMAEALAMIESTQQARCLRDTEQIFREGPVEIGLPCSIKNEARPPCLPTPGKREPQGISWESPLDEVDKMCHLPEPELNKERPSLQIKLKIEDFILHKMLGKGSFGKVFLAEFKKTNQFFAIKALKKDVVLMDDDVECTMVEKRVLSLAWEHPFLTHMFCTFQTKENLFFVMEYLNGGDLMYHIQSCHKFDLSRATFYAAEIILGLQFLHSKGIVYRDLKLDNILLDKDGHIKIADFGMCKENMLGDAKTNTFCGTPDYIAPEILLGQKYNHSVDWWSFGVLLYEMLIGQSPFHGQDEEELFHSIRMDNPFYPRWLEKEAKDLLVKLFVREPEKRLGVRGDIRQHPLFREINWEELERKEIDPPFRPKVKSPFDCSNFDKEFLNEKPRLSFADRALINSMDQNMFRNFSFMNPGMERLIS
Chain of UniProt P54646 (whole entry, looked up): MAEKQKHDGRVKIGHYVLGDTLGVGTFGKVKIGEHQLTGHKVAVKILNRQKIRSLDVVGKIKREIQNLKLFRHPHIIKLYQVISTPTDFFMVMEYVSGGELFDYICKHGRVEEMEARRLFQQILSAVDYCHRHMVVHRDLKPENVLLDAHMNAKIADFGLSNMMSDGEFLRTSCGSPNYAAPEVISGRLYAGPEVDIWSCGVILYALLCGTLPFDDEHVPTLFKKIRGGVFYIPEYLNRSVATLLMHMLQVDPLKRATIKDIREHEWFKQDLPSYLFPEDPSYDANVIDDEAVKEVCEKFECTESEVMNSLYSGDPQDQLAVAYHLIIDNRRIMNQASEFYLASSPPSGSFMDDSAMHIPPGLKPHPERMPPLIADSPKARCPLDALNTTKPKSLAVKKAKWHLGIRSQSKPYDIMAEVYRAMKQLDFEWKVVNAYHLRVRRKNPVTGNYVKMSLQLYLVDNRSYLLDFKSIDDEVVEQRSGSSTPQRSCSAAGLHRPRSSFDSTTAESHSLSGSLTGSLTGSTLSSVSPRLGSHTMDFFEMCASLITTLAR
Chain of UniProt O14733 (whole entry, looked up): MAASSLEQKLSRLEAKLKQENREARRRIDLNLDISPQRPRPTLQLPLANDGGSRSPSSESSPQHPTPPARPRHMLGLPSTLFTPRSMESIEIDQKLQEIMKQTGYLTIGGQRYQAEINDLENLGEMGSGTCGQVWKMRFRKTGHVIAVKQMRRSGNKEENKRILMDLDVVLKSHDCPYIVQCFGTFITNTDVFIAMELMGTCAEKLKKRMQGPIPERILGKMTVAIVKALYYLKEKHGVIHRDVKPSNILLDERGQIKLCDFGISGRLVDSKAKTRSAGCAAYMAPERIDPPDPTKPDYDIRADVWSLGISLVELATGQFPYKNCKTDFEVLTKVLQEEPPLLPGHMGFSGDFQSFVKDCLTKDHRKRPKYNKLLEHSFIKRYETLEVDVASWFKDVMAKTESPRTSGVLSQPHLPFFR

Set 1 — read-out: enzyme activity; mode: inhibitor; concentration: 0.5 µM; reference: control
Target: Tyrosine-protein kinase FRK (FRK, Homo sapiens, UniProt P42685)
Chain of UniProt P42685 (whole entry, looked up): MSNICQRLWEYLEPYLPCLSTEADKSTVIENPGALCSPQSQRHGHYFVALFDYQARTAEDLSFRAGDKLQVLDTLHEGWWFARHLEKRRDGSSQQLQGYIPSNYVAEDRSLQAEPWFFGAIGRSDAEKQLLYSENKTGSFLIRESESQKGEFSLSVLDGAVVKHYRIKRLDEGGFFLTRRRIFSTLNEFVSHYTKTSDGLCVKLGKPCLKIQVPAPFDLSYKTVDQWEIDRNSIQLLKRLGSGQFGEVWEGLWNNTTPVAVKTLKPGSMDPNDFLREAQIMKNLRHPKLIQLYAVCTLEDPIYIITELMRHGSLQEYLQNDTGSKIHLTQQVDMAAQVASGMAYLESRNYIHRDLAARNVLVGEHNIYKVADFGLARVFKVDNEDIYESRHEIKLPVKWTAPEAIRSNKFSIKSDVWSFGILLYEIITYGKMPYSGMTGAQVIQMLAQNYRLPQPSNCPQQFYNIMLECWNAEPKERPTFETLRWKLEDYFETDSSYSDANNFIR
`CO[C@H]1C[C@@H]2CC[C@@H](C)[C@@](O)(O2)C(=O)C(=O)N2CCCC[C@H]2C(=O)O[C@H]([C@H](C)C[C@@H]2CC[C@@H](O)[C@H](OC)C2)CC(=O)[C@H](C)/C=C(\C)[C@@H](O)[C@@H](OC)C(=O)[C@H](C)C[C@H](C)/C=C/C=C/C=C/1C` has a remaining activity of 106%.
`CCOC(=O)c1c(C)[nH]c(/C=C2\C(=O)Nc3ccccc32)c1C` has a remaining activity of 95.3%.
The remaining activity of `O=C1NC(=O)C(c2cn(CCCn3ccnc3)c3ccccc23)=C1Nc1ccccc1` is reported as 107%.
The remaining activity of `C#Cc1cccc(Nc2ncnc3cc(OCCOC)c(OCCOC)cc23)c1` is reported as 102%.
The remaining activity of `O=C(O)c1ccc2c3c1cccc3c(=O)n1c3ccccc3nc21` is reported as 97.6%.
`Nc1ccc2ncnc(NCCc3ccc(Oc4ccccc4)cc3)c2c1` has a remaining activity of 100%.
The remaining activity of `COc1ccc(OC)c2c(=S)c3ccccc3[nH]c12` is reported as 88.8%.
For `O=S(=O)(c1cccc2cnccc12)N1CCCNCC1`, the remaining activity was 78.1%.
`COc1ccc(C(=O)Nc2sc3c(c2C(N)=O)CCCC3)cc1OC` gave a remaining activity of 88.8%.
`OCC(O)CCON=C1C(c2c(O)[nH]c3ccccc23)=Nc2ccccc21` (centres unmarked) gave a remaining activity of 49.7%.
For `Nc1[nH]nc2nc3ccccc3nc12`, the remaining activity was 96.8%.
`Cn1sc(=O)n(Cc2ccccc2)c1=O` has a remaining activity of 112%.
With `O=C(Nc1cccc(Nc2cc(Nc3cccc(C(F)(F)F)c3)ncn2)c1)C1CC1` the remaining activity was 102%.
For `COc1ccc(CNC(=O)Nc2ncc([N+](=O)[O-])s2)cc1`, the remaining activity was 97.2%.
`Cn1c2ccccc2c2c3c(c4c5ccccc5n(CCC#N)c4c21)CNC3=O` has a remaining activity of 84.7%.

Set 2 — read-out: cell-free assay; method: competition with immobilised ligand; concentration: 0.1 µM
Structure (SMILES): C[C@@H]1CN(c2cc(-c3n[nH]c4ccc(OC5(C)CC5)cc34)ncn2)C[C@H](C)O1
The remaining binding was 77% (Dual specificity mitogen-activated protein kinase kinase 7 (MAP2K7, Homo sapiens, UniProt O14733)).
Serine/threonine-protein kinase Sgk2 (SGK2, Homo sapiens, UniProt Q9HBY8) — remaining binding: 84%.
For Serine/threonine-protein kinase Nek4 (NEK4, Homo sapiens, UniProt P51957): remaining binding read 84%.
Protein kinase C delta type (PRKCD, Homo sapiens, UniProt Q05655) — remaining binding: 100%.
Calcium/calmodulin-dependent protein kinase type 1G (CAMK1G, Homo sapiens, UniProt Q96NX5) — remaining binding: 91%.
It gave 80% for remaining binding (Cytoplasmic tyrosine-protein kinase BMX (BMX, Homo sapiens, UniProt P51813)).
It gave 62% for remaining binding (Serine/threonine-protein kinase ICK (CILK1, Homo sapiens, UniProt Q9UPZ9)).
For Citron Rho-interacting kinase (CIT, Homo sapiens, UniProt O14578): remaining binding read 69%.
5'-AMP-activated protein kinase catalytic subunit alpha-2 (PRKAA2, Homo sapiens, UniProt P54646) — remaining binding: 100%.
It gave 74% for remaining binding (Protein kinase C theta type (PRKCQ, Homo sapiens, UniProt Q04759)).
For Dual specificity mitogen-activated protein kinase kinase 3 (MAP2K3, Homo sapiens, UniProt P46734): remaining binding read 71%.
Serine/threonine-protein kinase ULK2 (ULK2, Homo sapiens, UniProt Q8IYT8) — remaining binding: 69%.
It gave 69% for remaining binding (Receptor-type tyrosine-protein kinase FLT3 (FLT3, Homo sapiens, UniProt P36888, F691L/ITD)).

Set 3 — host: mouse; sample: microsomes or S9; concentration: 2 µM; time: 0.5 h
`COc1ccc2c(C)c(C(=O)OC(C)C)n(C)c2c1` gave a remaining compound of 46.8%.
For `Cc1cc2c(c(O)c1-c1c(C)cc3c(c1O)C(=O)C(O)C3C(C)C)C(=O)C(O)C2C(C)C` (centres unmarked), the remaining compound was 62.3%.
`Cc1ccc2c(=O)c(-c3nc(-c4ccccc4C)no3)cn(CC(=O)NC3CCc4ccccc43)c2n1` (centres unmarked) gave a remaining compound of 0.555%.

Mixed results
`Cc1cc2c(C(N)=O)c(N)n(-c3c(C)ccc(O)c3C)c2nc1C` has a binding remaining of 0.1% (ABL1 phosphorylated human; KINOMEscan; 1000 nM; reference: control).
